Assay results gathered from unrelated publications.
Lines come from different studies, so protocols differ. ± gives the spread as reported.
Observed: binding
PTH1R: Parathyroid hormone/parathyroid hormone-related peptide receptor (PTH1R, Homo sapiens, UniProt Q03431)
Sequence of UniProt Q03431 (whole entry, looked up): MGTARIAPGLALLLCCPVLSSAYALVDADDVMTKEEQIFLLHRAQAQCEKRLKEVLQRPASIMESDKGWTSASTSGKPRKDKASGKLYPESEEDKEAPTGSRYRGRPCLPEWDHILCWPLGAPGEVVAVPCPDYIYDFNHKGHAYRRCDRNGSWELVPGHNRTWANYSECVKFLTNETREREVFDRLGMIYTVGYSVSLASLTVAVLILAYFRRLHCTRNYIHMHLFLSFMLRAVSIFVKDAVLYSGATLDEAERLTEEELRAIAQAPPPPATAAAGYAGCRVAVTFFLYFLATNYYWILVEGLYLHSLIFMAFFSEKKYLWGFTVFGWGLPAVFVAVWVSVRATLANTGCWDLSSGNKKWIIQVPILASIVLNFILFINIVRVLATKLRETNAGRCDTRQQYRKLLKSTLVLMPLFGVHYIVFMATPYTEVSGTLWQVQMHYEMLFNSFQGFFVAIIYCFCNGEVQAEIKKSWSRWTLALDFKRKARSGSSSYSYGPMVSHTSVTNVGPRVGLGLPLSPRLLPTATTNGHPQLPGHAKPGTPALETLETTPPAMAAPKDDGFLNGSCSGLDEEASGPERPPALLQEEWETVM
ACTA1: Actin, alpha skeletal muscle (ACTA1, Oryctolagus cuniculus, UniProt P68135)
Alpha-mannosidase: Alpha-mannosidase (Canavalia ensiformis, UniProt C0HJB3)
Sequence of UniProt C0HJB3 (whole entry, looked up): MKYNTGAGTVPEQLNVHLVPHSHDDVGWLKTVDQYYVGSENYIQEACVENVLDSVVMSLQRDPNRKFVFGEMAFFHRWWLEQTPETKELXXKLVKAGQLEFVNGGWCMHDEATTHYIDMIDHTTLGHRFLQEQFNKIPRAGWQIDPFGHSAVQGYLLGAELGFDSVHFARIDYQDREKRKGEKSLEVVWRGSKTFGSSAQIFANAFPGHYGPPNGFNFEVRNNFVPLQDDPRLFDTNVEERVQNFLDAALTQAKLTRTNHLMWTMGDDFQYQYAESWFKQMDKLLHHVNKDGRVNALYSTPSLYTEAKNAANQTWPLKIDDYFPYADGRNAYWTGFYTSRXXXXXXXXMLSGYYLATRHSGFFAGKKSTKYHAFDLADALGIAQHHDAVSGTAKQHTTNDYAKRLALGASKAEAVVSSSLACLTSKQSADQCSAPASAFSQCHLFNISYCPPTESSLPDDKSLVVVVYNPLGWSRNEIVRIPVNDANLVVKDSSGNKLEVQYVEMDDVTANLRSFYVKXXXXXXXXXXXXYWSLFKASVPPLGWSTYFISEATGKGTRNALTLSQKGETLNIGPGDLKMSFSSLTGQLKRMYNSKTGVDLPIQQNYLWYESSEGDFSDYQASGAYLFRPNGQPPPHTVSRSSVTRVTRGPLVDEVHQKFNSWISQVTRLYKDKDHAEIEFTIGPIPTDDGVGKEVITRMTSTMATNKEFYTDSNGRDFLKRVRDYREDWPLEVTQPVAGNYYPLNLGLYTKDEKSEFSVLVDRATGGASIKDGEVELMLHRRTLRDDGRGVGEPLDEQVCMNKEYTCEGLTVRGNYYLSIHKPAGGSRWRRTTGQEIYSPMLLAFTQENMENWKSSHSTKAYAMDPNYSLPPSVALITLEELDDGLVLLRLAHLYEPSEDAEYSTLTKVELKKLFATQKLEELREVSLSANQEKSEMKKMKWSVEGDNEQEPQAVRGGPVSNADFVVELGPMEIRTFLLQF
Sequence of UniProt Q07021 (whole entry, looked up): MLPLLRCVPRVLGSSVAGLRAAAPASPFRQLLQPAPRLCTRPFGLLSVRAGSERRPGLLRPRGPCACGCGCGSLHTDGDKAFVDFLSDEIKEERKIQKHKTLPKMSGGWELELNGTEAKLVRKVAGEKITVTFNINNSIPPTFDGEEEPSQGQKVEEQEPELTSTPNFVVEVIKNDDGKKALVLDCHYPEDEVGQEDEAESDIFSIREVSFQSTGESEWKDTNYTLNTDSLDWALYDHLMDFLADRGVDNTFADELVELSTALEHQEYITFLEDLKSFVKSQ
Sequence of UniProt P51686 (whole entry, looked up): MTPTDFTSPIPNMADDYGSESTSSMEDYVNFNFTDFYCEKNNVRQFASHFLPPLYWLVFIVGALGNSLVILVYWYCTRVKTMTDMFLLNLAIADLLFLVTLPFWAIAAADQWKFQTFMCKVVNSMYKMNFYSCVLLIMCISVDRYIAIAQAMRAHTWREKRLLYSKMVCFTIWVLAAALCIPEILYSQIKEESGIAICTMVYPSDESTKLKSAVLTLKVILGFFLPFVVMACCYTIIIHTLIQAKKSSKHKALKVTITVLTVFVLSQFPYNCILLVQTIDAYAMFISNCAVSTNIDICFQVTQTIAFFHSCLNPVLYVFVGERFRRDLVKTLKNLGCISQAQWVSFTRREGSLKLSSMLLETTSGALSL

| Structure (SMILES) | target | assay | system | conditions | kon [M⁻¹ s⁻¹] |
| --- | --- | --- | --- | --- | --- |
| CN(C)c1ccc2c(-c3ccc(C(=O)NCCCn4cc(COc5cc(C(=O)c6cc(Cl)ccc6NS(=O)(=O)c6ccc(C(C)(C)C)cc6)cc[n+]5[O-])nn4)cc3C(=O)[O-])c3ccc(=[N+](C)C)cc-3oc2c1 | CCR9 (Homo sapiens, UniProt P51686) | BRET | – | cell membranes | 7980 |
| CC[C@H](C)[C@H](NC(=O)[C@H](CCC(=O)O)NC(=O)[C@H](CO)NC(=O)[C@@H](NC(=O)[C@@H](N)CO)C(C)C)C(=O)N[C@@H](CCC(N)=O)C(=O)N[C@@H](CC(C)C)C(=O)N[C@@H](CCSC)C(=O)N[C@@H](Cc1c[nH]cn1)C(=O)N[C@@H](CC(N)=O)C(=O)N[C@@H](CC(C)C)C(=O)NCC(=O)N[C@@H](CCCCN)C(=O)N[C@@H](Cc1c[nH]cn1)C(=O)N[C@@H](CC(C)C)C(=O)N[C@@H](CC(N)=O)C(=O)N[C@@H](CO)C(=O)N[C@@H](CCSC)C(=O)N[C@@H](CCC(=O)O)C(=O)N[C@@H](CCCNC(=N)N)C(=O)N[C@H](C(=O)N[C@@H](CCC(=O)O)C(=O)N[C@@H](Cc1c[nH]c2ccccc12)C(=O)N[C@@H](CC(C)C)C(=O)N[C@@H](CCCNC(=N)N)C(=O)N[C@@H](CCCCN)C(=O)N[C@@H](CCCCN)C(=O)N[C@@H](CC(C)C)C(=O)N[C@@H](CCC(N)=O)C(=O)N[C@@H](CC(=O)O)C(=O)N[C@H](C(=O)N[C@@H](Cc1c[nH]cn1)C(=O)N[C@@H](CCCCNC(=O)c1ccc2c(c1)C1(OC2=O)c2ccc(N(C)C)cc2Oc2cc(N(C)C)ccc21)C(=O)N[C@@H](Cc1ccccc1)C(N)=O)C(C)C)C(C)C | PTH1R | NanoBRET | HEK293 stably expressing receptor | room temperature, 0.02% sodium azide, with: 5 µM coelenterazine h | 400000 ± 60000 |
| CC(C)[C@H](NC(=O)[C@H](CCCCN)NC(=O)[C@H](C)NC(=O)[C@H](CCCCN)NC(=O)CNC(=O)[C@H](CCCNC(=N)N)NC(=O)[C@@H](NC(=O)[C@H](CCCCN)NC(=O)[C@@H](N)CO)[C@@H](C)O)C(=O)N[C@H](C(=O)NCC(=O)N[C@@H](CS)C(=O)N[C@@H](Cc1c[nH]c2ccccc12)C(=O)N[C@@H](CCCCN)C(=O)O)[C@@H](C)O | ACTA1 | SPR | – | pH 7 | 1570 |
| O=C(CCO)c1ccc(O)cc1 | Alpha-mannosidase | surface plasmon resonance | – | 25 °C | 9.92 |
| CSCC[C@H](NC(=O)[C@H](CC(C)C)NC(=O)[C@H](CCC(N)=O)NC(=O)[C@H](Cc1c[nH]cn1)NC(=O)[C@H](CCC(=O)O)NC(=O)[C@H](CO)NC(=O)[C@@H](NC(=O)[C@@H](N)CO)C(C)C)C(=O)N[C@@H](Cc1c[nH]cn1)C(=O)N[C@@H](CC(N)=O)C(=O)N[C@@H](CC(C)C)C(=O)NCC(=O)N[C@@H](CCCCN)C(=O)N[C@@H](Cc1c[nH]cn1)C(=O)N[C@@H](CC(C)C)C(=O)N[C@@H](CC(N)=O)C(=O)N[C@@H](CO)C(=O)N[C@@H](CCSC)C(=O)N[C@@H](CCC(=O)O)C(=O)N[C@@H](CCCNC(=N)N)C(=O)N[C@H](C(=O)N[C@@H](CCC(=O)O)C(=O)N[C@@H](Cc1c[nH]c2ccccc12)C(=O)N[C@@H](CC(C)C)C(=O)N[C@@H](CCCNC(=N)N)C(=O)N[C@@H](CCCCN)C(=O)N[C@@H](CCCCN)C(=O)N[C@@H](CC(C)C)C(=O)N[C@@H](CCC(N)=O)C(=O)N[C@@H](CC(=O)O)C(=O)N[C@H](C(=O)N[C@@H](Cc1c[nH]cn1)C(=O)N[C@@H](CC(N)=O)C(=O)N[C@@H](Cc1ccccc1)C(=O)N[C@@H](CCCCNC(=O)c1ccc2c(c1)C1(OC2=O)c2ccc(N(C)C)cc2Oc2cc(N(C)C)ccc21)C(N)=O)C(C)C)C(C)C | PTH1R | NanoBRET | – | pH 6.5, MES buffer | 680000 ± 300000 |
| CC(C)[C@H](NC(=O)[C@H](CCCCN)NC(=O)[C@H](C)NC(=O)[C@H](CCCCN)NC(=O)CNC(=O)[C@H](CCCNC(=N)N)NC(=O)[C@@H](NC(=O)[C@H](CCCCN)NC(=O)[C@@H](N)CO)[C@@H](C)O)C(=O)N[C@H](C(=O)NCC(=O)N[C@@H](CCCNC(=N)N)C(=O)N[C@@H](Cc1c[nH]c2ccccc12)C(=O)N[C@@H](CCCCN)C(=O)O)[C@@H](C)O | ACTA1 | SPR | – | pH 7 | 4150 |
| CC[C@H](C)[C@H](NC(=O)[C@H](CCC(=O)O)NC(=O)[C@H](CO)NC(=O)[C@@H](N)C(C)C)C(=O)N[C@@H](CCC(N)=O)C(=O)N[C@@H](CC(C)C)C(=O)N[C@@H](CCSC)C(=O)N[C@@H](Cc1c[nH]cn1)C(=O)N[C@@H](CC(N)=O)C(=O)N[C@@H](CC(C)C)C(=O)NCC(=O)N[C@@H](CCCCN)C(=O)N[C@@H](Cc1c[nH]cn1)C(=O)N[C@@H](CC(C)C)C(=O)N[C@@H](CC(N)=O)C(=O)N[C@@H](CO)C(=O)N[C@@H](CCSC)C(=O)N[C@@H](CCC(=O)O)C(=O)N[C@@H](CCCNC(=N)N)C(=O)N[C@H](C(=O)N[C@@H](CCC(=O)O)C(=O)N[C@@H](Cc1c[nH]c2ccccc12)C(=O)N[C@@H](CC(C)C)C(=O)N[C@@H](CCCNC(=N)N)C(=O)N[C@@H](CCCCN)C(=O)N[C@@H](CCCCN)C(=O)N[C@@H](CC(C)C)C(=O)N[C@@H](CCC(N)=O)C(=O)N[C@@H](CC(=O)O)C(=O)N[C@H](C(=O)N[C@@H](Cc1c[nH]cn1)C(=O)N[C@@H](CC(N)=O)C(=O)N[C@@H](Cc1ccccc1)C(=O)N[C@@H](CCCCNC(=O)c1ccc2c(c1)C1(OC2=O)c2ccc(N(C)C)cc2Oc2cc(N(C)C)ccc21)C(N)=O)C(C)C)C(C)C | PTH1R | NanoBRET | HEK293 stably expressing receptor | room temperature, 0.02% sodium azide, with: 5 µM coelenterazine h | 250000 ± 170000 |
| CC1=CC(=O)CC(C)(C)C1(O)C=CC(C)O (stereo not drawn) | Alpha-mannosidase | surface plasmon resonance | – | 25 °C | 4.76 |
| C[C@@H](O)[C@@H]1NC(=O)[C@H](CCCNC(=N)N)NC(=O)[C@H](CCCCN)NC(=O)[C@H](CC(N)=O)NC(=O)CNC(=O)[C@@H](N)CSSC[C@@H](C(=O)O)NC(=O)CNC(=O)[C@H](CCCNC(=N)N)NC1=O | C1QBP (Homo sapiens, UniProt Q07021) | SPR | – | – | 20200 |
